Published values collected from several papers.
Every numbered part comes from another study and shows a few of its results, in no order.
Chain of UniProt Q6ZN16 (whole entry, looked up): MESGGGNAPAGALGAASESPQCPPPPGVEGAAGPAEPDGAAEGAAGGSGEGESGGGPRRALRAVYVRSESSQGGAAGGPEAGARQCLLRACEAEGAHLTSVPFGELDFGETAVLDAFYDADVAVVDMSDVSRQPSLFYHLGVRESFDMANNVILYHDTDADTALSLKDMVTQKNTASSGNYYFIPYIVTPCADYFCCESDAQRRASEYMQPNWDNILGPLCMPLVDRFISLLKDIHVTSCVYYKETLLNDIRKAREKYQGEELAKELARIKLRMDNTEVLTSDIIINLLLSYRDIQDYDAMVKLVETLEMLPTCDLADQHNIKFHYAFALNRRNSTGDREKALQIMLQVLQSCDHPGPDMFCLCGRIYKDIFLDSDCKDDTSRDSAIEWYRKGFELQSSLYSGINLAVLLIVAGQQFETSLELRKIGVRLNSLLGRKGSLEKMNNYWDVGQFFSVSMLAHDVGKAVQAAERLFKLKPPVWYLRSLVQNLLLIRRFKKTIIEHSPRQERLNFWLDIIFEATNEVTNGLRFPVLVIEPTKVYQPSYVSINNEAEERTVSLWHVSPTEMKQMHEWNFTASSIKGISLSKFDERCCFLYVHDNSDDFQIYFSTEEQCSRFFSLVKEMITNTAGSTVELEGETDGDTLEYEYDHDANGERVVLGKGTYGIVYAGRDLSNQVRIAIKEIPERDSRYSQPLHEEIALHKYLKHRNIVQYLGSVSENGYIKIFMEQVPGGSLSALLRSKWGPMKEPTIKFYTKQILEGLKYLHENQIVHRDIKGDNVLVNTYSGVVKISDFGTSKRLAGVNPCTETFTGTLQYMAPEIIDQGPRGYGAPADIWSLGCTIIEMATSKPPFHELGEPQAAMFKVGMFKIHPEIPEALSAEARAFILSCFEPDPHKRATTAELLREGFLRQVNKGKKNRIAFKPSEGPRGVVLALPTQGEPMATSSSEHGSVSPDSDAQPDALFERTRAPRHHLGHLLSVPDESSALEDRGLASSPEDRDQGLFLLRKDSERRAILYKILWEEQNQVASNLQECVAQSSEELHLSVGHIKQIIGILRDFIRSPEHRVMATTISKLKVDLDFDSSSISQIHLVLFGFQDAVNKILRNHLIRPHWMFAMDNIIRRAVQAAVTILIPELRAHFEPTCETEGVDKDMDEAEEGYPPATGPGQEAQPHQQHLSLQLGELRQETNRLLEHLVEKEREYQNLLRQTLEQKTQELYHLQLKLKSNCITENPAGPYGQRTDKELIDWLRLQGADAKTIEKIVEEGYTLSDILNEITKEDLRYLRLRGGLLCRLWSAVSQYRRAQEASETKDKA
Chain of UniProt P06493 (whole entry, looked up): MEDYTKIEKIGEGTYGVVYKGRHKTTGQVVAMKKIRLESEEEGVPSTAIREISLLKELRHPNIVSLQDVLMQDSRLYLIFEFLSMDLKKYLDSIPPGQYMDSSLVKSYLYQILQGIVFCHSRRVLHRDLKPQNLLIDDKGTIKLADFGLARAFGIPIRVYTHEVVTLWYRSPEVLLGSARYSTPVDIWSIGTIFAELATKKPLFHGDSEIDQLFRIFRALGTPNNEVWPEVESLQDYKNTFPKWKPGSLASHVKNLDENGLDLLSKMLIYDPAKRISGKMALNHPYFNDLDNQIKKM
Chain of UniProt P61075 (whole entry, looked up): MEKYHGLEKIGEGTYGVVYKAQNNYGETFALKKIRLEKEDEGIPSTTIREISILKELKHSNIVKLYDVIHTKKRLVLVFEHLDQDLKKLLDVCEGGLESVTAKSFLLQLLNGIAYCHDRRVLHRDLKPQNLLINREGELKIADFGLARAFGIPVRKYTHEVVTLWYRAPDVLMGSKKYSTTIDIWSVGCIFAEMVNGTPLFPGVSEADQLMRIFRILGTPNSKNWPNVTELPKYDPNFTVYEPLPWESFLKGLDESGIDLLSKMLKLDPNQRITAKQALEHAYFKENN
Chain of UniProt P31751 (whole entry, looked up): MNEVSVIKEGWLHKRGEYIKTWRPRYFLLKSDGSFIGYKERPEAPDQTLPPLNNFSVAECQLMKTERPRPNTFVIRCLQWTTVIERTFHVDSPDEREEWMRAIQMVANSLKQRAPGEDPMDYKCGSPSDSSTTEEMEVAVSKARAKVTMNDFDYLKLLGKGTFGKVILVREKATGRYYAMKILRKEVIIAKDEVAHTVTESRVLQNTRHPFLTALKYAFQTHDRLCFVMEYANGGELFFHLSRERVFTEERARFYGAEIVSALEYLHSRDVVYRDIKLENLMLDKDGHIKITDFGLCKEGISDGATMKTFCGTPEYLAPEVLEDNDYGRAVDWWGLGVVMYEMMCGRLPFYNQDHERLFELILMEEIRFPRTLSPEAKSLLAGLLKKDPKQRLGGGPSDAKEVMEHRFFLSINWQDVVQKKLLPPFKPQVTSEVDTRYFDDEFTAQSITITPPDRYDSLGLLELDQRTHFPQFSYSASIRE
Chain of UniProt Q13557 (whole entry, looked up): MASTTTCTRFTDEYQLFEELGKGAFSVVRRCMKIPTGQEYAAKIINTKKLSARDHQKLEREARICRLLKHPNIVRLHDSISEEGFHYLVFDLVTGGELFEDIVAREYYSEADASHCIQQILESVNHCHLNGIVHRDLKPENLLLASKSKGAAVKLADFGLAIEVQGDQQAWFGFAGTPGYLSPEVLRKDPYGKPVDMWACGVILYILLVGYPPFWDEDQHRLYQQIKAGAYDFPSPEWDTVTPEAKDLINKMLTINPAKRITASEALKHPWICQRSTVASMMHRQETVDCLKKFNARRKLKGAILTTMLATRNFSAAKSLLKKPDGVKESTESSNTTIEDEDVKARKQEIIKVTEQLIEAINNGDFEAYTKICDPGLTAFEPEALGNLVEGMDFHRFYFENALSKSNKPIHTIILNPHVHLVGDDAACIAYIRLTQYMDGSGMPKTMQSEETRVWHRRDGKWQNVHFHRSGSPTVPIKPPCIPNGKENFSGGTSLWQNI
Chain of UniProt O75914 (whole entry, looked up): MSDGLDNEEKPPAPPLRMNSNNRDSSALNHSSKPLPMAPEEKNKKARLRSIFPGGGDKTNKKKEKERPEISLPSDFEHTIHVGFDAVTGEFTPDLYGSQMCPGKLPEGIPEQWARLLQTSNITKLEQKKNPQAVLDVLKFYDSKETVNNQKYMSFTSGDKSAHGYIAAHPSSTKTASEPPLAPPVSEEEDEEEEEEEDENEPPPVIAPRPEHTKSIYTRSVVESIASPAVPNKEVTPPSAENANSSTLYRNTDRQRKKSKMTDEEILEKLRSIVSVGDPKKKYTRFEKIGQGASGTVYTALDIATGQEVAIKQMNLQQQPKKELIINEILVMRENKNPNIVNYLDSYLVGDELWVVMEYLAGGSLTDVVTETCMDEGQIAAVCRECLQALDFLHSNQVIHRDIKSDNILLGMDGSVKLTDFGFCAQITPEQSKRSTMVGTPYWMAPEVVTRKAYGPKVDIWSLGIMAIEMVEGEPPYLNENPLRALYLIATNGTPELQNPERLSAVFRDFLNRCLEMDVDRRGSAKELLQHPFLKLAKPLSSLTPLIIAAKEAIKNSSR
Chain of UniProt Q8TF76 (whole entry, looked up): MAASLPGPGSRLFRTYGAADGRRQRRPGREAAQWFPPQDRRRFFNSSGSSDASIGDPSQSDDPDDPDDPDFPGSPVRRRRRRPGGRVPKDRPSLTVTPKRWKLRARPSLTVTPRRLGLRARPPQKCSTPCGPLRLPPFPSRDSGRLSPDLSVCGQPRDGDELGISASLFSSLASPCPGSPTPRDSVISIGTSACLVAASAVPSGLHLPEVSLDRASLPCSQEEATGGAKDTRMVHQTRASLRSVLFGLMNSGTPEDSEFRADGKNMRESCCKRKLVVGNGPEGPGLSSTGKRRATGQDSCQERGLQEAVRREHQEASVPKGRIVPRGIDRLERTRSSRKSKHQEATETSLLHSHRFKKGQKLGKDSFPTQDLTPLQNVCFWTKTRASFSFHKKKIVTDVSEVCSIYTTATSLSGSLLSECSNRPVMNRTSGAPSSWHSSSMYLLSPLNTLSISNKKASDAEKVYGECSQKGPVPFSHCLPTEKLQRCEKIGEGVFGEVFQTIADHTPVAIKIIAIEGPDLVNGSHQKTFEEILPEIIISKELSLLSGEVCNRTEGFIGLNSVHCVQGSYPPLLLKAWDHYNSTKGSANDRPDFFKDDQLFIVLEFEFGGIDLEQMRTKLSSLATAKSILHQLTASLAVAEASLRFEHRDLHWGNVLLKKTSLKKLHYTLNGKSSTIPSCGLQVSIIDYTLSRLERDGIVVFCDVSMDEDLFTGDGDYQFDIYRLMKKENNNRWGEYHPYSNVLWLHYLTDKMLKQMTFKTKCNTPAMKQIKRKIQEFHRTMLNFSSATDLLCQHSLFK
Chain of UniProt O75716 (whole entry, looked up): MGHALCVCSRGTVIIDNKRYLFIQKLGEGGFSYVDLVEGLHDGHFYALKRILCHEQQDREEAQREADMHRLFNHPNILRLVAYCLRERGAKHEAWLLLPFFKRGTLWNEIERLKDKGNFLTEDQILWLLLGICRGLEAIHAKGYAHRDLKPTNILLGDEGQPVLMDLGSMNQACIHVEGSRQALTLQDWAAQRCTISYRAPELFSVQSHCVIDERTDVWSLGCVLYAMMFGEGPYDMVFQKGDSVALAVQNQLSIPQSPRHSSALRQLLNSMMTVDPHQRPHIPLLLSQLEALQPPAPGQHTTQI

Sample 1
SMILES: CS(=O)(=O)CCNCc1ccc(-c2ccc3ncnc(Nc4ccc(OCc5cccc(F)c5)c(Cl)c4)c3c2)o1
Observed: enzyme activity
Action: inhibitor
Tested at: 0.5 µM
Baseline: control
target | remaining activity
Serine/threonine-protein kinase PAK 3 (PAK3, Homo sapiens, UniProt O75914) | 105%
Calcium/calmodulin-dependent protein kinase type 1B (PNCK, Homo sapiens, UniProt Q6P2M8) | 98.1%
Serine/threonine-protein kinase DCLK2 (DCLK2, Homo sapiens, UniProt Q8N568) | 101%
Ribosomal protein S6 kinase alpha-4 (RPS6KA4, Homo sapiens, UniProt O75676) | 93.4%
RAC-beta serine/threonine-protein kinase (AKT2, Homo sapiens, UniProt P31751) | 105%
Dual specificity mitogen-activated protein kinase kinase 1 (MAP2K1, Homo sapiens, UniProt Q02750) | 105%
Cyclin-dependent kinase 1, with cyclin A (CDK1, Homo sapiens, UniProt P06493) | 101%
Hepatocyte growth factor receptor (MET, Homo sapiens, UniProt P08581) | 84.1%
Serine/threonine-protein kinase MRCK beta (CDC42BPB, Homo sapiens, UniProt Q9Y5S2) | 95.7%
Mitogen-activated protein kinase 14 (MAPK14, Homo sapiens, UniProt Q16539) | 101%
MAP/microtubule affinity-regulating kinase 4 (MARK4, Homo sapiens, UniProt Q96L34) | 104%
Serine/threonine-protein kinase PLK3 (PLK3, Homo sapiens, UniProt Q9H4B4) | 105%
Myosin-IIIb (MYO3B, Homo sapiens, UniProt Q8WXR4) | 96.1%
Dual specificity protein kinase CLK4 (CLK4, Homo sapiens, UniProt Q9HAZ1) | 115%
Dual specificity protein kinase CLK3 (CLK3, Homo sapiens, UniProt P49761) | 107%
Discoidin domain-containing receptor 2 (DDR2, Homo sapiens, UniProt Q16832) | 107%
Rho-associated protein kinase 1 (ROCK1, Homo sapiens, UniProt Q13464) | 108%
Serine/threonine-protein kinase tousled-like 2 (TLK2, Homo sapiens, UniProt Q86UE8) | 83.9%
Vascular endothelial growth factor receptor 2 (KDR, Homo sapiens, UniProt P35968) | 96.6%
Mitogen-activated protein kinase 11 (MAPK11, Homo sapiens, UniProt Q15759) | 101%
Serine/threonine-protein kinase Nek3 (NEK3, Homo sapiens, UniProt P51956) | 99.6%
Mitogen-activated protein kinase 1 (MAPK1, Homo sapiens, UniProt P28482) | 102%
cGMP-dependent protein kinase 2 (PRKG2, Homo sapiens, UniProt Q13237) | 108%
Serine/threonine-protein kinase MARK2 (MARK2, Homo sapiens, UniProt Q7KZI7) | 137%

Sample 2
Compound: CCOC(=O)c1cc2cc(-c3cc(C(=O)NCc4ccc(C(=O)O)cc4)nn3C)ccc2[nH]1
Observed: cell-free assay
Technique: competition with immobilised ligand
Tested at: 0.1 µM
target | remaining binding [%]
Mitogen-activated protein kinase kinase kinase 15 (MAP3K15, Homo sapiens, UniProt Q6ZN16) | 100
Serine/threonine-protein kinase haspin (HASPIN, Homo sapiens, UniProt Q8TF76) | 77
Casein kinase I isoform gamma-3 (CSNK1G3, Homo sapiens, UniProt Q9Y6M4) | 100
Phosphatidylinositol 4,5-bisphosphate 3-kinase catalytic subunit alpha isoform (PIK3CA, Homo sapiens, UniProt P42336, E542K) | 96
Serine/threonine-protein kinase D3 (PRKD3, Homo sapiens, UniProt O94806) | 100
Epidermal growth factor receptor (EGFR, Homo sapiens, UniProt P00533) | 92

Sample 3
Structure (SMILES): COc1ccc2[nH]c3c4[nH]c5ccc(OC)cc5c4c4c(c3c2c1)C(=O)NC4=O
Tested at: 1 µM
target | test | conditions | how to read | remaining binding [%]
Tyrosine-protein kinase ZAP-70 (ZAP70, Homo sapiens, UniProt P43403) | competitive binding panel | – | baseline: vehicle | 76
Cyclin-dependent kinase 2 homolog (CRK2, Plasmodium falciparum, UniProt P61075) | competitive binding, scanMAX | Plasmodium falciparum PK5, 1000 nM | – | 82
Calcium/calmodulin-dependent protein kinase type II subunit delta (CAMK2D, Homo sapiens, UniProt Q13557) | competitive binding panel | – | baseline: vehicle | 64
Phosphatidylinositol 4-phosphate 5-kinase type-1 alpha (PIP5K1A, Homo sapiens, UniProt Q99755) | competitive binding panel | – | baseline: vehicle | 100
Serine/threonine-protein kinase WNK3 (WNK3, Homo sapiens, UniProt Q9BYP7) | competitive binding panel | – | baseline: vehicle | 92
Mitogen-activated protein kinase kinase kinase 15 (MAP3K15, Homo sapiens, UniProt Q6ZN16) | competitive binding panel | – | baseline: vehicle | 64
Ephrin type-B receptor 4 (EPHB4, Homo sapiens, UniProt P54760) | competitive binding panel | – | baseline: vehicle | 84

Sample 4
SMILES: C=CC(=O)N1CCC[C@@H](n2nc(-c3ccc(Oc4ccccc4)cc3)c3c(N)ncnc32)C1
Action: inhibitor
Tested at: 1 µM
target | test | inhibition [%]
Ephrin type-B receptor 3 (EPHB3, Homo sapiens, UniProt P54753) | enzyme activity | 0
TGF-beta receptor type-2 (TGFBR2, Homo sapiens, UniProt P37173) | enzyme activity | 4
Ribosomal protein S6 kinase alpha-3, N-terminal kinase domain (RPS6KA3, Homo sapiens, UniProt P51812) | – | 36
Receptor tyrosine-protein kinase erbB-3 (ERBB3, Homo sapiens, UniProt P21860) | enzyme activity | 100
Serine/threonine-protein kinase TNNI3K (TNNI3K, Homo sapiens, UniProt Q59H18) | enzyme activity | 66
Serine/threonine-protein kinase 16 (STK16, Homo sapiens, UniProt O75716) | enzyme activity | 0

Sample 5
Target: Calcium/calmodulin-dependent protein kinase type II subunit alpha (CAMK2A, Homo sapiens, UniProt Q9UQM7)
Chain of UniProt Q9UQM7 (whole entry, looked up): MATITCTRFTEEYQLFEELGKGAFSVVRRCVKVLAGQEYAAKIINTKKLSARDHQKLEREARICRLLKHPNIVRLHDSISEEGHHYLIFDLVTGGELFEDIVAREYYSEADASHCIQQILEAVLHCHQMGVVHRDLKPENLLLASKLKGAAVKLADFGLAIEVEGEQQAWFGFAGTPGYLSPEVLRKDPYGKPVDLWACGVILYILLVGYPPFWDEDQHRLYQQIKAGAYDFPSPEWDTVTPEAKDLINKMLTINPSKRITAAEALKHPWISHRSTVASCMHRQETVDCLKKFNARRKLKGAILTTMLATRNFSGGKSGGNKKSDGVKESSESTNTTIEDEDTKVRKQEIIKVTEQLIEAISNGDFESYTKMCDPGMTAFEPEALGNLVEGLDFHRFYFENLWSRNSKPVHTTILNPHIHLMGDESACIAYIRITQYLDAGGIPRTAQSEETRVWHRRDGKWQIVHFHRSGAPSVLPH
Observed: enzyme activity
Action: inhibitor
Tested at: 10 µM
Compound | inhibition [%]
CCC1=C[C@@H]2CN(C1)Cc1c([nH]c3ccccc13)[C@@](C(=O)OC)(c1cc3c(cc1OC)N(C)[C@H]1[C@@](O)(C(=O)OC)[C@H](OC(C)=O)[C@]4(CC)C=CCN5CC[C@]31[C@@H]54)C2 | 23
O=c1c(O)c(-c2ccccc2)oc2ccccc12 | -13
Cc1cc2nc3c(=O)[nH]c(=O)nc-3n(C[C@H](O)[C@H](O)[C@H](O)CO)c2cc1C | 1
N[C@@H](CO)C(=O)O | -10
Cc1cccc(C)c1OCC(C)N (stereo not shown) | 2
O=C(O)CNC(=O)c1cccc(O)c1 | 10
COc1ccc(CO)cc1OC | 19
CC1(C)O[C@@H]2C[C@H]3[C@@H]4C[C@H](F)C5=CC(=O)C=C[C@]5(C)[C@H]4[C@@H](O)C[C@]3(C)[C@]2(C(=O)CO)O1 | -5
CC(C)(O)c1ccccc1CC[C@@H](SCC1(CC(=O)O)CC1)c1cccc(/C=C/c2ccc3ccc(Cl)cc3n2)c1 | -6

A few entries again (sample 4):
target | test | inhibition [%]
Serine/threonine-protein kinase TNNI3K (TNNI3K, Homo sapiens, UniProt Q59H18) | enzyme activity | 66
Ephrin type-B receptor 3 (EPHB3, Homo sapiens, UniProt P54753) | enzyme activity | 0
TGF-beta receptor type-2 (TGFBR2, Homo sapiens, UniProt P37173) | enzyme activity | 4
Ribosomal protein S6 kinase alpha-3, N-terminal kinase domain (RPS6KA3, Homo sapiens, UniProt P51812) | – | 36
Receptor tyrosine-protein kinase erbB-3 (ERBB3, Homo sapiens, UniProt P21860) | enzyme activity | 100
Serine/threonine-protein kinase 16 (STK16, Homo sapiens, UniProt O75716) | enzyme activity | 0
